# Literature values that unrelated publications cite.
# Values joined by “and” are separate records of one study, mostly repeats; a detail may differ. ± marks the error that the study gave.
# UniProt Q8TDX7, sequence (whole entry, looked up): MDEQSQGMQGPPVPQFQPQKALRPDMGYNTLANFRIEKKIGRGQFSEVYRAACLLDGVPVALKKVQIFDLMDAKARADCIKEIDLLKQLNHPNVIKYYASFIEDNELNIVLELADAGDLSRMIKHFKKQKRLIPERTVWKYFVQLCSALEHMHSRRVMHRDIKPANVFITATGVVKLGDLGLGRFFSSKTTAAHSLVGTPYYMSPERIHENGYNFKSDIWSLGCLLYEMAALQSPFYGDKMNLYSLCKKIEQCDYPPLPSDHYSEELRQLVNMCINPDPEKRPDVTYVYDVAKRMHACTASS
SMILES,tested on,assay,system,conditions,how to read,quantity,result
Cc1cnc(N2CC3(CCOCC3)C2)c(C(=O)Nc2ccc(C(=O)N3CCc4cc(C(=O)Nc5c(C)cccc5F)sc4-c4ccccc43)cc2)c1,HEp-2,,,no effect at tested concentrations,,cytotoxic concentration,> 10 µg/mL
COc1ccccc1OCCNCC(O)COc1cccc2[nH]c3ccccc3c12 (centres unmarked),HepG2,mitochondrial membrane potential,,"concentration not given, Tox21",,mitochondrial toxicity,active
CNC(C)C1CCC(N)C(OC2C(N)CC(N)C(OC3OCC(C)(O)C(NC)C3O)C2O)O1 (centres unmarked),Acinetobacter baumannii,,clinical isolate RKI-No_584/16,,,MIC,1 µg/mL
C/C(=N\CCO)c1c(O)c2ccccc2oc1=O,HL-60,,,,,cytotoxicity,590 µM
C[C@@H]1O[C@@H](OC[C@H]2O[C@@H](Oc3c(-c4ccc(O)c(O)c4)oc4cc(O)cc(O)c4c3=O)[C@H](O)[C@@H](O)[C@@H]2O)[C@H](O)[C@H](O)[C@H]1O,Hep G2,,,,,CC50,322 µg/mL
O=C1Oc2ccc3ccccc3c2C1c1c[nH]c2ccccc12 (centres unmarked),COLO 320 ABCB1-overexpressing,cell viability,,,,IC50,> 100 µM
CS(=O)(=O)c1ccc(Oc2cc(F)cc(C#N)c2)c2c1[C@H](O)[C@H](F)[C@@H]2F,HepG2,mitochondrial membrane potential,,"concentration not given, Tox21",,activity outcome,inactive
Cc1nc(-c2nnc3n2CCN(C(=O)c2ccc(-c4cccs4)cc2)[C@@H]3C)cs1,Caco-2,,,0.1% BSA,,Papp B to A,52.9 ×10⁻⁶ cm/s
CCCCCC(CCC)C(=O)O (centres unmarked),mouse 3T3 fibroblasts,cell viability,,unbound medium concentration,,IC10,452 µM
CN(C)C/C=C/C(=O)Nc1cc2c(Nc3ccc(F)c(Cl)c3)ncnc2cc1O[C@H]1CCOC1,Caco-2,,,300 µM,,Papp B to A,6.99 ± 0.8 ×10⁻⁶ cm/s
NC(=O)N1c2ccccc2C=Cc2ccccc21,HepG2,mitochondrial membrane potential,,"concentration not given, Tox21",,activity outcome,inactive
CN(C)c1ccc(C(=O)N(CC(=O)NCc2ccccc2)Cc2ccc(C(=O)Nc3ccccc3N)cc2)cc1,A2780cisR,"cell viability, MTT",,72 h,,IC50,8.28 ± 0.78 µM
NC1=NCC2c3ccccc3Cc3ccccc3N12 (centres unmarked),HepG2,,,concentration not given,,mitochondrial membrane potential,inactive
CCS(=O)(=O)Nc1ccc(Oc2ccc(F)cc2F)c(-c2cn(C)c(=O)c3[nH]ccc23)c1,megakaryocyte colony-forming units,colony formation,,,,EC50,0.003 µM
CCN1CCN(C(=O)c2ccc(-n3nc(-c4cccnc4)c4c3-c3sc(NC(C)=O)nc3CC4)cc2)CC1,Caco-2,,,,,efflux ratio,158
N=C(CC(O)c1cc2c(F)cc(F)cc2c2cc(C(F)(F)F)ccc12)Nc1ccc(F)cc1 (centres unmarked),HepG2,,,,,CC50,20.7 ± 2.2 µM
Cc1nc2n(c(=O)c1CCN1CCC(c3noc4cc(F)ccc34)CC1)CCCC2,HepG2,mitochondrial membrane potential,,"concentration not given, Tox21",,activity outcome,inactive
Nc1cc(C(F)(F)F)c(-c2nc(N3CCOCC3)nc(N3CCOCC3)n2)cn1,"Serine/threonine-protein kinase Nek7 (NEK7, Homo sapiens, UniProt Q8TDX7)",enzyme activity,,10 µM,baseline: untreated,remaining activity,100%
Nc1ccccc1NC(=O)c1ccc(CNC(=O)OCc2cccnc2)cc1,Cal27CisR,"cell viability, MTT",,72 h,,IC50,3.63 ± 0.3 µM
CCC(C)n1ncn(-c2ccc(N3CCN(c4ccc(OCC5COC(Cn6cncn6)(c6ccc(Cl)cc6Cl)O5)cc4)CC3)cc2)c1=O (centres unmarked),MDCK,,,,,apparent permeability,57.1 ×10⁻⁶ cm/s
C/C(=N\Cc1ccccc1)c1c(O)c2ccccc2oc1=O,HL-60,,,,,cytotoxicity,801 µM
Cc1cccc(C)c1OCC(=O)N[C@@H](Cc1ccccc1)[C@@H](O)C[C@H](Cc1ccccc1)NC(=O)[C@H](C(C)C)N1CCCNC1=O,HepG2,mitochondrial membrane potential,,"concentration not given, Tox21",,mitochondrial toxicity,active
COc1cccc2c1C(=O)c1c(O)c3c(c(O)c1C2=O)C[C@@](O)(C(=O)CO)C[C@@H]3O[C@H]1C[C@H](N)[C@H](O)[C@H](C)O1,COLO 205,cytotoxicity,,,,IC50,0.81 µM and 0.84 µM and 0.89 µM
[N-]=[N+]=N[C@]1(CO)O[C@@H](n2ccc(N)nc2=O)[C@@H](F)[C@@H]1O,PBMC,,,,,CC50,3.03 µM
CC(=O)O[C@H]1C(=O)[C@@]2(C)[C@H]([C@H](OC(=O)c3ccccc3)[C@]3(O)C[C@H](OC(=O)[C@H](O)[C@@H](NC(=O)c4ccccc4)c4ccccc4)C(C)=C1C3(C)C)[C@]1(OC(C)=O)CO[C@@H]1C[C@@H]2O,CFPAC-1,cytotoxicity,,,,IC50,0.06 µM
O=C(c1nc(-c2c[nH]c3cc(Br)ccc23)c[nH]1)c1c[nH]c2cc(O)ccc12,NSCLC-N6,cytotoxicity,,,,IC50,12 µg/mL
Cc1nc2n(c(=O)c1CCN1CCC(c3noc4cc(F)ccc34)CC1)CCCC2O (centres unmarked),HepG2,mitochondrial membrane potential,,"concentration not given, Tox21",,activity outcome,inactive
CCCC(C)C(=O)O (centres unmarked),mouse 3T3 fibroblasts,cell viability,,unbound medium concentration,,IC10,1760 µM
CC(F)(F)c1cc(F)ccc1-c1sc2cc(O)ccc2c1Oc1ccc(/C=C/C(=O)O)cc1,human hepatocytes,,,concentration not given,baseline: positive control,CYP3A4 mRNA induction,< 10%
CC1(C)S[C@@H]2[C@H](NC(=O)[C@H](N)c3ccccc3)C(=O)N2[C@H]1C(=O)O,Acinetobacter baumannii,,clinical isolate RKI-No_377/15,,,MIC,> 16 µg/mL
CCC(CC)COC(=O)[C@H](C)N[P@](=O)(OC[C@H]1O[C@@](C#N)(c2ccc3c(N)ncnn23)[C@H](O)[C@@H]1O)Oc1ccccc1,Huh-7,cytotoxicity,,,,CC50,1.4 ± 0.5 µM
N#C/C=C/c1ccc2c(S(=O)(=O)n3nc(Nc4ccc(C#N)c(Cl)c4)nc3N)cccc2c1,mouse neurons,,,,,TC50,> 100 µM
O=C(O[C@@H]1COC(=O)c2cc(O)c(O)c(O)c2-c2c(cc(O)c(O)c2O)C(=O)O[C@H]1[C@@H]1OC(=O)c2cc(O)c(O)c(O)c2-c2c(O)c(O)c(O)c3c2C(=O)O[C@H]1[C@@H]3O)c1cc(O)c(O)c(O)c1,Chang liver cells,cytotoxicity,,,,IC50,> 37.5 µg/mL
C[C@@H](c1ncncc1F)[C@](O)(Cn1cncn1)c1ccc(F)cc1F,HepG2,mitochondrial membrane potential,,"concentration not given, Tox21",,activity outcome,inactive
COc1cc2c(cc1OC)C(c1c[nH]c3ncccc13)NCC2 (centres unmarked),COLO 320 ABCB1-resistant colon,cytotoxicity,,,,IC50,> 100 µM

# Excerpt of the above:
SMILES,tested on,assay,system,conditions,how to read,quantity,result
C[C@@H]1O[C@@H](OC[C@H]2O[C@@H](Oc3c(-c4ccc(O)c(O)c4)oc4cc(O)cc(O)c4c3=O)[C@H](O)[C@@H](O)[C@@H]2O)[C@H](O)[C@H](O)[C@H]1O,Hep G2,,,,,CC50,322 µg/mL
O=C1Oc2ccc3ccccc3c2C1c1c[nH]c2ccccc12 (centres unmarked),COLO 320 ABCB1-overexpressing,cell viability,,,,IC50,> 100 µM
CS(=O)(=O)c1ccc(Oc2cc(F)cc(C#N)c2)c2c1[C@H](O)[C@H](F)[C@@H]2F,HepG2,mitochondrial membrane potential,,"concentration not given, Tox21",,activity outcome,inactive
Cc1nc(-c2nnc3n2CCN(C(=O)c2ccc(-c4cccs4)cc2)[C@@H]3C)cs1,Caco-2,,,0.1% BSA,,Papp B to A,52.9 ×10⁻⁶ cm/s
CCCCCC(CCC)C(=O)O (centres unmarked),mouse 3T3 fibroblasts,cell viability,,unbound medium concentration,,IC10,452 µM
CN(C)C/C=C/C(=O)Nc1cc2c(Nc3ccc(F)c(Cl)c3)ncnc2cc1O[C@H]1CCOC1,Caco-2,,,300 µM,,Papp B to A,6.99 ± 0.8 ×10⁻⁶ cm/s
